Experimental data collected from several papers.
Each numbered part is a random draw from the data of one study; scales do not carry over between parts. Changes are numbered by the printed parent chain.

Study 1 — method: RNA Bind-n-Seq; molecule type: RNA; medium: in vitro; concentration: 365 nM; baseline: no-protein control; direction: higher = stronger binding; measurement: RBNS enrichment (R)
Target: RNA binding protein fox-1 homolog 2, RRM domain, GST-SBP tag (RBFOX2, Homo sapiens, UniProt O43251-10, residues 100-194)
Setting: natural RNA segment, single round, ends assumed
All sequences stand within: GGGAGUUCUACAGUCCGACGAUC … UGGAAUUCUCGGGUGCCAA
Construct (chain): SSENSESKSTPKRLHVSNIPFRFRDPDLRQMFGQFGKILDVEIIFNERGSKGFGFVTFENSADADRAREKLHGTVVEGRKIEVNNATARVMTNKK
CCAGCACGGUCCCUCUUGGAAUUGGAUUCGCCAUUUUAUUUUUCUUGCUGCUAAAUCACCGAGCCCGGAAGAUUAGAGAGUUUUAUUUCUGGGAUUCCUGUAGACACACC: 0.563
GUUCAUUAGAGCAGUCUGGCCACUGGGGUGCCAGUUCGUUGGCCUUCCACGCUGAGGUACCCUCUGCAGUGGUAGGCAGCCUGCCCAUAUGGCCACUUGGGCCUGACUCU: 0.276
GGAGCUUUAAUCAGUAAAUGUCUCCACUUCCUAUAUUACAUUAACGUUGGCUCAUGCAUAUAACCACCUGCUGCUGAUGUACUUCUCCAUCUUAAAAAGAUUUAGAGUGG: 0.478
UGAUAUAUUUCAGCUUAAAGUUAUGUUAUUAUAUGUGGAUGUAAAUAUAGAUUUGGUGUUUUACAGUCUGGUGUCGUGGUUUUCAUUGUGUUCCUGCUGUGUGUGUGUGU: 1.69
GAAAAUGUGUCAGCAUGCAUAGUGCUAAGAAAGCAAGCCAAUUUGGAAACUUAGGUUAGUGACAAAAUUGGCCAGAGAGUGGGGGUGAUGAUGACCAAGAAUUACAAGUA: 1.02
AAAGAGAAUUCUUUUCUAUAGAACGAGUGGGGGCGGGGAUGGGUAGGGAUUUAUCCAAUCUAAGCCCUAACCCCACUUAGUGACCUCAGUGUUUUCUUCCAUUCCUUCUU: 0.161
CACCCUUGCUAGGGUUUCCGUACAGCCACGUGGCCGGGGCCAUGGCUUUCAAGUGCUGUCUGGGGGGGCCAGCCCCACGAGCCUCCAACCACAUUAGAGGCUGGGAACAG: 0.338
UUUAAGCUGCAAAUUGAGUACACUGGGAAUCAACAAAUUUGAUGAAGCCUGUCUGUCUCUUCACCAGUGGAGUGAGUGCAGCAGUUAGAAAGAGAAGCAAUAUUGUGCAA: 0.423
CACAUCAGGAGCAAAAUCACAGAUAUGAACUUAAUAAAAAUAAUGUUAUGGUUGGAGGUCACCACAACAUGAGCAACUGCAUUAAAGGAUCGCAGCAUCACGAAGGUGGA: 1.58
UCAGGCAACAGGACAGCCAUCUCUCUGCUUCAGCCCUCUGCCUACAGGGAUUAGGGAAAUGGAGCUCUGGCUUUGAAGUUAUUUGUGAGUUUAGCAACCUUCCAGUUACC: 0.5
GAUUAGACUUUAUCAGGGAAUCUGUUUAAGAUAUGUUUGGUGACCAAAACGUAUGUGUGAAUGUAGUUAUAAUGCUUUUGAAAAAUUUUCCUUUUUCUAUAUCCCCUUAG: 0.912
GUGUAAGGCCAGGCUUUAGUGGUCAUUAGACACCACAUGUGUUAUGAGCCCCUUACCCAUAGGGUUGGGGGUGGGAAGAGAAGCAUAUUUUUUUGCCAUUCCGGAAGCAA: 0.598

Study 2 — method: RNA Bind-n-Seq; molecule type: RNA; medium: in vitro; concentration: 1 µM; setting: whole 134-nt RNA, ends assumed; together with: 150 mM KCl; baseline: input library; direction: higher = stronger binding; measurement: log2 enrichment
Target: Ras GTPase-activating protein-binding protein 1, RRM domain (G3BP1, Homo sapiens, UniProt Q13283)
UniProt Q13283, sequence (whole entry, looked up): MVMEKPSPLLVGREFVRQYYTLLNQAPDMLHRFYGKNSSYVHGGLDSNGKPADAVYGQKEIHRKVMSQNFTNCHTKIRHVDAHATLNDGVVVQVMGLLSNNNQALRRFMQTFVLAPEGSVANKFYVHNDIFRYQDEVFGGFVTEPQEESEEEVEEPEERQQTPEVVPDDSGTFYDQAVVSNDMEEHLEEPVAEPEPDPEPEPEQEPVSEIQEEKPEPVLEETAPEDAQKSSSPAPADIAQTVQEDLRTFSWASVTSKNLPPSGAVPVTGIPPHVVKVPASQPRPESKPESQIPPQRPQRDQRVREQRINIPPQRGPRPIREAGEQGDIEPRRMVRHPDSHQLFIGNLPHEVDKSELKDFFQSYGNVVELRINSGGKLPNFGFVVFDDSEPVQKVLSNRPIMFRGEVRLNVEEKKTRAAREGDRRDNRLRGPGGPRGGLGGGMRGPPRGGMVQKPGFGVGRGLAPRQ
All sequences stand within: GGGAGUUCUACAGUCCGACGAUC … UGGAAUUCUCGGGUGUCAAGG
AGUCCUGUGCUACACAUCGUAUGUACCGAAUCAAAUUUUUUUAAACCCAAAUUUAAAAAAGUAUUAUGUUACGCCGUUCGGAUCUGCACU: -0.598
CCUCAAGUCCUGUGCUACACAUCGUAUGUACCGAAUCGGGCGGGCGGGGCGGGAAAGUAUUAUGUUACGCCGUUCGGAUCUGCACUUCCA: 0.686
GCAGGAAGUAAAAACAAAUGGAAAUGCUUCGGAUAGUGGCACGGGUGGGGGUUGCUAAGGAAAGGGUGGGAUGGGAGUGGGUAAAGAGUU: 0.949
UAUCUUUAGAGGAGGAUCUGAUGGAUAUGGCAGUGGACGUGGAUUUGGGGAUGGCUAUAAUGGGUAUGGAGGAGGACCUGGAGGUGGCAA: -0.79
CCUCAAGUCCUGUGCUACACAUCGUAUGUACCGAAUCGGGGUGGGUGGUGGGGAAAGUAUUAUGUUACGCCGUUCGGAUCUGCACUUCCA: 0.124
AGUCCUGUGCUACACAUCGUAUGUACCGAAUCGGUUUUUUUGGUUUUUUUGGAAAGGAAAGUAUUAUGUUACGCCGUUCGGAUCUGCACU: -0.288
CUGUGCUACACAUCGUAUGUACCGAAUCGGGGAAAAAAAGGGGAAAAAGGGGAAAAAGGGGAAAGUAUUAUGUUACGCCGUUCGGAUCUG: 0.766
GUCCUGUGCUACACAUCGUAUGUACCGAAUCGGCCCCCGGGCCCCCGGGGCCCCCGGGGAAAGUAUUAUGUUACGCCGUUCGGAUCUGCA: -0.453
GUCCUGUGCUACACAUCGUAUGUACCGAAUCGGCCCCCGGGCCCCCGGGCCCCCGGGGAAAGUAUUAUGUUACGCCGUUCGGAUCUGCAC: -0.503
UGGCCCUGGUGGCAUGCGGGGAGGAAGAGGUGGCCUCAUGGAUCGUGGUGGUCCCGGUGGAAUGUUCCGAGGUGGCCGUGGUGGAGACAG: 2.39
ACCAUGCAGGUGGGCAUCUUUGGGAAGUGGGGCAAGGGGGGGAUAGGGAGGGGGGUAACACUUUGGGAACAGGUUGUCCCAGGUCGUUUC: 1.02
GUCCUGUGCUACACAUCGUAUGUACCGAAUCGGGAAAAAAAGGGUUUGGGAAAAAGGGAAAGUAUUAUGUUACGCCGUUCGGAUCUGCAC: 0.115
CAAGUCCUGUGCUACACAUCGUAUGUACCGAAUCGGGUGGGUUUUUGGGUUUGGGAAAGUAUUAUGUUACGCCGUUCGGAUCUGCACUUC: 0.46
CCUGUGCUACACAUCGUAUGUACCGAAUCGGGGUUUUUUGGGGUUUUUUGGGUUUUUUGGGAAAGUAUUAUGUUACGCCGUUCGGAUCUG: -0.167

Study 3 — method: aptamer microarray, sandwich; molecule type: DNA with 2'F-ANA; medium: in vitro; concentration: 200 nM; together with: Cy3 exosite-II aptamer, 400 nM; direction: higher = stronger binding; measurement: mean fluorescence intensity; oligonucleotide: GGTTGGTGTGGTTGG
Target: Prothrombin, mature alpha-thrombin (F2, Homo sapiens, UniProt P00734)
Setting: whole 15-mer aptamer, many near background
2'F-ANA at 2 4 6 7 9 11 12 13 14: 82.8 a.u.
2'F-ANA at 1 8 9 11 12 13 15: 279 a.u.
2'F-ANA at 1 3 6 11 12: 435 a.u.
2'F-ANA at 1 2 3 4 5 7 9 11 14 15: 73.9 a.u.
2'F-ANA at 1 3 4 5 11 12 13 14: 110 a.u.
2'F-ANA at 2 5 6 7 8 9 11 12: 131 a.u.
2'F-ANA at 1 2 3 8 9 15: 263 a.u.
2'F-ANA at 1 2 3 5 7 8 11 14 15: 48.7 a.u.
2'F-ANA at 2 3 5 6 8 9 10 11 14 15: 51.5 a.u.
2'F-ANA at 2 3 4 6 7 8 9 12 13 14 15: 316 a.u.
2'F-ANA at 2 5 6 7 9 12 14: 69.3 a.u.
2'F-ANA at 1 3 4 6 8 9 10: 129 a.u.
2'F-ANA at 2 4 6 7 12 14 15: 135 a.u.
2'F-ANA at 6 7 8 10 11 14: 103 a.u.
2'F-ANA at 3 4 7 8 11 14: 416 a.u.
2'F-ANA at 3 7 8 9: 1260 a.u.
2'F-ANA at 1 2 6 7 8 11: 217 a.u.
2'F-ANA at 2 3 5 10 11 15: 53.3 a.u.
2'F-ANA at 4 11 12 15: 359 a.u.

Study 4 — method: DHFR PCA, deep sequencing; medium: yeast; together with: (+)-ABA 0.0091 µM; baseline: wild-type fitted maximum; direction: higher = stronger binding; measurement: relative binding score
Target: ABI1, truncated, D143A, DHFR fusion (Arabidopsis thaliana)
Setting: methotrexate growth selection, single substitutions
Starting sequence: PYL1, truncated, DHFR fusion (Arabidopsis thaliana); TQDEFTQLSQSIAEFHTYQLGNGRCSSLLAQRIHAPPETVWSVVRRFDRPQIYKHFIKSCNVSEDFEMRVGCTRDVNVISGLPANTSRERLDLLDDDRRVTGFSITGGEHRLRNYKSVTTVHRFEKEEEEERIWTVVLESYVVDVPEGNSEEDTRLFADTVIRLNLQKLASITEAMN; partner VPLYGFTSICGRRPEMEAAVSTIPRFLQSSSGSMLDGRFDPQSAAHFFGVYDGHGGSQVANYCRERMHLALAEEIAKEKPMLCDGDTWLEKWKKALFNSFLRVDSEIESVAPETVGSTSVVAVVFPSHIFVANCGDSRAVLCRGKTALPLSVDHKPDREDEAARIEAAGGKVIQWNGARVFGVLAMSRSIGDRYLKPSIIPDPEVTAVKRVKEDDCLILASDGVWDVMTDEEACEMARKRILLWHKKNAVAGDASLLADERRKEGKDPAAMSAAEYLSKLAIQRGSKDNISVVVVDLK
E14P: 4.81%
F66G: 13%
V142E: 7.49%
E109R: 2.58%
E125G: 35.5%
V76R: -2.1%
A84E: 17.8%
R32V: 50%
N114G: 15.7%
V161H: 42.3%
L94D: -10.8%
A158R: -3.99%
S171Q: 48%
I12L: -3.34%

Study 5 — target: CCNE1, cyclin fold, Cln2 fusion (human); method: yeast growth competition, sequencing; medium: yeast; setting: strong parent motif; baseline: not given; direction: higher = stronger binding; measurement: normalised enrichment score
Starting sequence: CDKN1B docking peptide (human); PSACRNLFGPVDH; partner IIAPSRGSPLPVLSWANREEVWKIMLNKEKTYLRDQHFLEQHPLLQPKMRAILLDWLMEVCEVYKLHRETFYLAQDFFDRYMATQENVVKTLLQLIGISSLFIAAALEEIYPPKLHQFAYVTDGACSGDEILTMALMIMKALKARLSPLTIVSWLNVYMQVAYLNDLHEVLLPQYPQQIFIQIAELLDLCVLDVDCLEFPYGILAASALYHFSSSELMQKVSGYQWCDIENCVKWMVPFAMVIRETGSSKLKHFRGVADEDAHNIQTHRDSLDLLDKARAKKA
PSACCNLFGPVDH [R5C]: -0.117
PSASRNLFGPVDH [C4S]: 0.774
PSACRMLFGPVDH [N6M]: 3.09
PSAGRNLFGPVDH [C4G]: -0.415
PSACRNLFGEVDH [P10E]: 3.1
PSSCRNLFGPVDH [A3S]: 0.744
PSACRNLFGPVDM [H13M]: 2.87
DSACRNLFGPVDH [P1D]: 2.31
PSAVRNLFGPVDH [C4V]: 3.15
PSACRNLFPPVDH [G9P]: 1.78
PSAQRNLFGPVDH [C4Q]: 0.277
PSACRNLFGPVDV [H13V]: 2.79
PSACRSLFGPVDH [N6S]: 1.42
PVACRNLFGPVDH [S2V]: 1.74
PSACRNLWGPVDH [F8W]: 2.23
PSACRNLDGPVDH [F8D]: 0.0012
PSACRNLFGPVDC [H13C]: 2.85
PSACRNLFGPVDL [H13L]: 3.24
PSACRNLFCPVDH [G9C]: 0.868
PSACRNLFGPVFH [D12F]: 2.35
PSAFRNLFGPVDH [C4F]: 0.976
PSACRNLFGPVVH [D12V]: 2.78
PSGCRNLFGPVDH [A3G]: 0.767
PSACRNLNGPVDH [F8N]: 0.261
PGACRNLFGPVDH [S2G]: 2.69

A few entries again (study 5):
PSACRNLDGPVDH [F8D]: 0.0012
PSAQRNLFGPVDH [C4Q]: 0.277
PSAGRNLFGPVDH [C4G]: -0.415
PSACRNLNGPVDH [F8N]: 0.261
PSAFRNLFGPVDH [C4F]: 0.976
PSACRNLWGPVDH [F8W]: 2.23
PSACRNLFGEVDH [P10E]: 3.1
PSAVRNLFGPVDH [C4V]: 3.15
PSACRNLFCPVDH [G9C]: 0.868
PSACRNLFGPVDV [H13V]: 2.79
